Experimental data gathered from unrelated publications.
Compare with care: the assays were run in different laboratories. Values joined by “and” are separate records of one study, mostly repeats; a detail may differ. ± marks the error that the study gave.

| Substance | tested on | test | test system | conditions | how to read | measurement | value |
| --- | --- | --- | --- | --- | --- | --- | --- |
| coproporphyrin III | – | UHPLC-MS/MS | human, serum | oral, 20 mg ezetimibe, 5 h, geometric mean ezetimibe phase | – | serum concentration | 0.282 nM |
| regorafenib N-β-glucuronide | – | – | Oatp1b2 knockout mice | oral, 10 mg/kg regorafenib | relative to: wild-type mice | AUC | 5.6 fold |
| human Ku70 | PP6C (human) | co-immunoprecipitation, IP-MS | CYB5R4 knockout cells | concentration not given | relative to: CYB5R4 knockout over parental | log2 fold change | -2.87 |
| methyl-β-cyclodextrin | Voltage-gated inwardly rectifying potassium channel KCNH2 (KCNH2, Homo sapiens, UniProt Q12809) | whole-cell patch clamp | HEK293 | concentration not given | – | activation curve slope | 7 ± 0.5 |
| CTOP | – | RP-HPLC | HALO RP-amide column | 25 µM, acetic acid/acetonitrile, 25 min gradient | – | retention time | 7.46 min |
| coproporphyrin I | – | UHPLC-MS/MS | human, serum | oral, 20 mg ezetimibe, 1.33 h, geometric mean ezetimibe phase | – | serum concentration | 2.71 nM |
| FNA / CGLSGLGVA-NH2 ([18F]FNA-labelled, C-amide) | – | gamma counting | peptide, glioblastoma mice, Harderian glands | 60 min | – | tissue uptake | 0.4 %ID/g |
| human E-Syt1 | PP6C (human) | co-immunoprecipitation, IP-MS | CYB5R4 knockout cells | concentration not given | relative to: CYB5R4 knockout over parental | log2 fold change | -0.61 |
| colistin | Klebsiella pneumoniae | broth microdilution | clinical isolate RKI-No_19/16 | – | – | MIC | 64 mg/L |
| human ME2 D102S | – | enzyme activity, NADH absorbance | – | without fumarate, together with: L-malate varied | – | Hill coefficient | 1.72 ± 0.05 |
| Polymyxin B | – | LC-MS | Sprague-Dawley rat, left cortex | intracerebroventricular, 0.75 mg/kg, 1 h | – | concentration | 0.86 mg/L and 0.94 mg/L and 1.31 mg/L and 5.79 mg/L and 4.69 mg/L and 5.2 mg/L and 4.09 mg/L and 1.08 mg/L |
| caspofungin | – | – | adult ICU patients, mITT, serum | dose not given, day 14 | – | alanine aminotransferase | 30.3 U/L |
| C-peptide | – | LC-MS/MS | pooled human serum, low level | 24 h, 4 °C, stability before sample preparation | relative to: untreated control | bias | 4% |
| Teicoplanin | – | – | stock solution | 10 months, -40 °C | – | recovery | 117% |
| [177Lu]Lu-DOTA-TATE | – | radio-HPLC | mouse serum | 24 h, 37 °C, 50 MBq/nmol | – | intact radiolabelled peptide | 98.1 ± 0.5% |
| coproporphyrin I | – | – | human, plasma | concentration not given, baseline, endogenous | – | Cmax | 1.16 ± 0.15 nM |

A few entries again:
| Substance | tested on | test | test system | conditions | how to read | measurement | value |
| --- | --- | --- | --- | --- | --- | --- | --- |
| Teicoplanin | – | – | stock solution | 10 months, -40 °C | – | recovery | 117% |
| [177Lu]Lu-DOTA-TATE | – | radio-HPLC | mouse serum | 24 h, 37 °C, 50 MBq/nmol | – | intact radiolabelled peptide | 98.1 ± 0.5% |
